Assay results from different studies.
Lines come from different studies, so protocols differ. Numbers after ± are the reported error.
CDK5 with p25: Cyclin-dependent kinase 5, with p25 (CDK5, Homo sapiens, UniProt Q00535)
Sequence of UniProt Q00535 (whole entry, looked up): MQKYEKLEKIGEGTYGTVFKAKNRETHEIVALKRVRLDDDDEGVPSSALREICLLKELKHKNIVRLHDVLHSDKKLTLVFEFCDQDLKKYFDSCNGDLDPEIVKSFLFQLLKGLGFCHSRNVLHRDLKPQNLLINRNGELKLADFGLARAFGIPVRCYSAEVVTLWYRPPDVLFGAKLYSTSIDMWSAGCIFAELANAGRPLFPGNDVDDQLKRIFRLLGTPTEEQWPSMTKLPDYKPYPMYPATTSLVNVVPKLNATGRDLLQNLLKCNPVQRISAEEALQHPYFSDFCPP
U2AF2: U2AF2 148-342 (Homo sapiens, UniProt P26368)
Sequence of UniProt P26368 (whole entry, looked up): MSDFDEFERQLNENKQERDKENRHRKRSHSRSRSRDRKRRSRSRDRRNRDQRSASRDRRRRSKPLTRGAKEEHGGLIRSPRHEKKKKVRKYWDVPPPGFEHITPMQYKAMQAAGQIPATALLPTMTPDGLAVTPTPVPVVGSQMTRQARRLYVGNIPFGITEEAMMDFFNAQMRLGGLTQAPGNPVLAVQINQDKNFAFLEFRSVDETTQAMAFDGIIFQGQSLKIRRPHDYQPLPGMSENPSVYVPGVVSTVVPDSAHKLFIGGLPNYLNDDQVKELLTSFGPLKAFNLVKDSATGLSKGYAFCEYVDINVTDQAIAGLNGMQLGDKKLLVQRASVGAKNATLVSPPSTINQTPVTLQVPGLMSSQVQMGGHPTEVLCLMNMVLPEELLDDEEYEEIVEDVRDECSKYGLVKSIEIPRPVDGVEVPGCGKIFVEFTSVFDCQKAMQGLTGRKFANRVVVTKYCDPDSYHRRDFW
B1: human Nup88; sequence looked up; chain AAAEGPVGDGELWQTWLPNHVVFLRLREGLKNQSPTEAEKPASSSLPSSPPPQLLTRNVVFGLGGELFLWDGEDSSFLVVRLRGPSGGGEEPALSQYQRLLCINPPLFEIYQVLLSPTQHHVALIGIKGLMVLELPKRWGKNSEFEGGKSTVNCSTTPVAERFFTSSTSLTLKHAAWYPSEILDPHVVLLTSDNVIRIYSLREPQTPTNVIILSEAEEESLVLNKGRAYTASLGETAVAFDFGPLAAVPKTLFGQNGKDEVVAYPLYILYENGETFLTYISLLHSPGNIGKLLGPLPMHPAAEDNYGYDACAVLCLPCVPNILVIATESGMLYHCVVLEGEEEDDHTSEKSWDSRIDLIPSLYVFECVELELALKLASGEDDPFDSDFSCPVKLHRDPKCPSRYHCTHEAGVHSVGLTWIHKLHKFLGSDEEDKDSLQELSTEQKCFVEHILCTKPLPCRQPAPIRGFWIVPDILGPTMICITSTYECLIWPLLSTVHPASPPLLCTREDVEVAESPLRVLAETPDSFEKHIRSILQRSVANPAFLKASEKDIAPPPEECLQLLSRATQVFREQYILKQDLAKEEIQRRVKLLCDQKKKQLEDLSYCREERKSLREMAERLADKYEEAKEKQEDIMNRMKKLLHSFHSELPVLSDSERDMKKELQLIPDQLRHLGNAIKQVTMKKDYQQQKMEKVLSLPKPTIILSAYQRKCIQSILKEEGEHIREMVKQINDIRNHVNF
B2: FasL; sequence looked up; chain QIGHPSPPPEKKELRKVAHLTGKSNSRSMPLEWEDTYGIVLLSGVKYKKGGLVINETGLYFVYSKVYFRGQSCNNLPLSHKVYMRNSKYPQDLVMMEGKMMSYCTTGQMWARSSYLGAVFNLTSADHLYVNVSELSLVNFEESQTFFGLYKL
B3: human histone deacetylase 6; sequence looked up; chain MTSTGQDSTTTRQRRSRQNPQSPPQDSSVTSKRNIKKGAVPRSIPNLAEVKKKGKMKKLGQAMEEDLIVGLQGMDLNLEAEALAGTGLVLDEQLNEFHCLWDDSFPEGPERLHAIKEQLIQEGLLDRCVSFQARFAEKEELMLVHSLEYIDLMETTQYMNEGELRVLADTYDSVYLHPNSYSCACLASGSVLRLVDAVLGAEIRNGMAIIRPPGHHAQHSLMDGYCMFNHVAVAARYAQQKHRIRRVLIVDWDVHHGQGTQFTFDQDPSVLYFSIHRYEQGRFWPHLKASNWSTTGFGQGQGYTINVPWNQVGMRDADYIAAFLHVLLPVALEFQPQLVLVAAGFDALQGDPKGEMAATPAGFAQLTHLLMGLAGGKLILSLEGGYNLRALAEGVSASLHTLLGDPCPMLESPGAPCRSAQASVSCALEALEPFWEVLVRSTETVERDNMEEDNVEESEEEGPWEPPVLPILTWPVLQSRTGLVYDQNMMNHCNLWDSHHPEVPQRILRIMCRLEELGLAGRCLTLTPRPATEAELLTCHSAEYVGHLRATEKMKTRELHRESSNFDSIYICPSTFACAQLATGAACRLVEAVLSGEVLNGAAVVRPPGHHAEQDAACGFCFFNSVAVAARHAQTISGHALRILIVDWDVHHGNGTQHMFEDDPSVLYVSLHRYDHGTFFPMGDEGASSQIGRAAGTGFTVNVAWNGPRMGDADYLAAWHRLVLPIAYEFNPELVLVSAGFDAARGDPLGGCQVSPEGYAHLTHLLMGLASGRIILILEGGYNLTSISESMAACTRSLLGDPPPLLTLPRPPLSGALASITETIQVHRRYWRSLRVMKVEDREGPSSSKLVTKKAPQPAKPRLAERMTTREKKVLEAGMGKVTSASFGEESTPGQTNSETAVVALTQDQPSEAATGGATLAQTISEAAIGGAMLGQTTSEEAVGGATPDQTTSEETVGGAILDQTTSEDAVGGATLGQTTSEEAVGGATLAQTTSEAAMEGATLDQTTSEEAPGGTELIQTPLASSTDHQTPPTSPVQGTTPQISPSTLIGSLRTLELGSESQGASESQAPGEENLLGEAAGGQDMADSMLMQGSRGLTDQAIFYAVTPLPWCPHLVAVCPIPAAGLDVTQPCGDCGTIQENWVCLSCYQVYCGRYINGHMLQHHGNSGHPLVLSYIDLSAWCYYCQAYVHHQALLDVKNIAHQNKFGEDMPHPH
B4: human RAB5C; sequence looked up; chain MAGRGGAARPNGPAAGNKICQFKLVLLGESAVGKSSLVLRFVKGQFHEYQESTIGAAFLTQTVCLDDTTVKFEIWDTAGQERYHSLAPMYYRGAQAAIVVYDITNTDTFARAKNWVKELQRQASPNIVIALAGNKADLASKRAVEFQEAQAYADDNSLLFMETSAKTAMNVNEIFMAIAKKLPKNEPQNATGAPGRNRGVDLQENNPASRSQCCSN
B5: peroxiredoxin-1 (human); sequence looked up; chain SSGNAKIGHPAPNFKATAVMPDGQFKDISLSDYKGKYVVFFFYPLDFTFVCPTEIIAFSDRAEEFKKLNCQVIGASVDSHFCHLAWVNTPKKQGGLGPMNIPLVSDPKRTIAQDYGVLKADEGISFRGLFIIDDKGILRQITVNDLPVGRSVDETLRLVQAFQFTDKHGEVCPAGWKPGSDTIKPDVQKSKEYFSKQK
Sequence of UniProt P13393 (whole entry, looked up): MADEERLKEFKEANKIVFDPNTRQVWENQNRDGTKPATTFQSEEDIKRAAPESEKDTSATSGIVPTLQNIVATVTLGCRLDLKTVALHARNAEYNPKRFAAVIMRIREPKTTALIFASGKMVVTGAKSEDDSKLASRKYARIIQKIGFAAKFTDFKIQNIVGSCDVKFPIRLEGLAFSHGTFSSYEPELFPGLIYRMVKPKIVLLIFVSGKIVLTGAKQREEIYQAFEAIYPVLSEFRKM

With `colistin` the MIC was ≤ 0.5 µg/mL (Klebsiella pneumoniae; broth microdilution; clinical isolate RKI-No_107/15).
`catalase`: protein level “decreased” (LS174T; western blot, refers to: cyclin A, D1 and E; concentration not given, 48 h).
With `DNA 1 AAATCTTTTCTTTTTTCCATTCATTCATTAAATTTTCAATTCAATCGGTCC / DNA 2 GGACCGATTGACTTGAAAATTTAATGAATGAATGGAAAAAAGAAAAGATTT (dsDNA; 5'-amino-C6 primer)` the Kd was 14.8 ± 0.72 nM (SPT15 full length assumed (Saccharomyces cerevisiae, UniProt P13393); array; double-stranded DNA; TBP alone).
For `human RGPD5`, “log2 fold change” read 0.61 (CYB5R4 knockout human cells; PP6 interaction, 3xFLAG-PP6C IP-MS; concentration not given; reference: CYB5R4 KO over parental).
With `KEAFWDRCLSVINLMSSKMLQINS` the activity change was 9% (CDK5 with p25; phosphotransferase activity, radiometric; peptide; concentration not given, 10% DMSO, added: histone substrate; reference: p5-WT peptide).
`B1 (human Nup88)` — result for “phosphorylation log2 fold change”: -3.93 (U2OS; phosphoproteomics; concentration not given, added: cisplatin; reference: untreated U2OS).
`MTVCNASQRQAHAQATAVSL` gave a selectivity ratio of 9.4 ± 1.2 (H1666 lung adenocarcinoma/BAC; phage binding output/input; peptide; reference: control phage).
The GFP-positive cells of `YIDILGLAY` is reported as 0.479% (Jurkat expressing engineered TCR; NFAT-eGFP reporter, fluorescence microscopy; peptide; concentration not given, HLA-A*01:01 on EL4 cells).
For `PFVYLIRFHRFHRFHGGGSSSQLSRP`, the transfection efficiency was ~90% (HEK293T; mRNA delivery, refers to: mCherry; peptide; concentration not given).
`GTDPIPLGA` gave a GFP-positive cells of 0.496% (Jurkat expressing engineered TCR; NFAT-eGFP reporter, fluorescence microscopy; peptide; concentration not given, HLA-A*01:01 on EL4 cells).
With `epoetin alfa` the mRNA level was 3.7 fold (UT7/EPO; RT-qPCR, refers to: DUSP2; concentration not given, 90 min, normalized to HPRT1; reference: vehicle).
For `CAGUUGUGC (ssRNA)`, the Kd was 2570 nM (U2AF2; sequencing of bound RNA; RNA; motif only).
`YLDPIPLAY` gave a GFP-positive cells of 0.728% (Jurkat NFAT-eGFP expressing engineered TCR; NFAT reporter gene; peptide; concentration not given, HLA-A*01:01 presentation).
The PI-positive cells of `B2 (FasL)` is reported as 7% (mouse thymocytes; inducer, flow cytometry; concentration not given).
`human glutamate dehydrogenase 2`: “log2 fold change” -0.81 (CYB5R4 knockout human cells; PP4 interaction, 3xFLAG-PP4C IP-MS; concentration not given; reference: CYB5R4 KO over parental).
With `Peginesatide` the phosphorylation level was 6.6 fold (UT7/EPO; tyrosine phosphorylation, LC-MS/MS phosphoproteomics, trypsin, refers to: VAV1 tyrosine 603; 10 nM, 15 min, added: 10 U/mL EPO; reference: vehicle).
`B3 (human histone deacetylase 6)`: “log2 fold change” -0.08 (CYB5R4 knockout human cells; PP4 interaction, 3xFLAG-PP4C IP-MS; concentration not given; reference: CYB5R4 KO over parental).
With `Triton X-100` the IC50 was 1600 nM (HFF; cytotoxicity).
The GFP-positive cells of `ELDIIQPDY` is reported as 0.868% (Jurkat NFAT-eGFP expressing engineered TCR; NFAT reporter gene; peptide; concentration not given, HLA-A*01:01 presentation).
For `B4 (human RAB5C)`, “log2 fold change” read 0.68 (CYB5R4 knockout human cells; PP6 interaction, 3xFLAG-PP6C IP-MS; concentration not given; reference: CYB5R4 KO over parental).
For `ESDPIVAQY`, the GFP-positive cells was 4.11% (Jurkat NFAT-eGFP expressing engineered TCR; NFAT reporter gene; peptide; concentration not given, HLA-A*01:01 presentation).
`KEAFWDRCLSVINLMSSKMLQVNA` gave an activity change of 39% (CDK5 with p25; phosphotransferase activity, radiometric; peptide; concentration not given, 10% DMSO, added: histone substrate; reference: p5-WT peptide).
With `AUUUUCUUU (ssRNA)` the Kd was 8220 nM (U2AF2; sequencing of bound RNA; RNA; motif only).
`B5 (peroxiredoxin-1)`: “log2 fold change” 0.2 (CYB5R4 knockout human cells; PP6 interaction, 3xFLAG-PP6C IP-MS; concentration not given; reference: CYB5R4 KO over parental).

Excerpt of the above:
For `human RGPD5`, “log2 fold change” read 0.61 (CYB5R4 knockout human cells; PP6 interaction, 3xFLAG-PP6C IP-MS; concentration not given; reference: CYB5R4 KO over parental).
`catalase`: protein level “decreased” (LS174T; western blot, refers to: cyclin A, D1 and E; concentration not given, 48 h).
The GFP-positive cells of `YIDILGLAY` is reported as 0.479% (Jurkat expressing engineered TCR; NFAT-eGFP reporter, fluorescence microscopy; peptide; concentration not given, HLA-A*01:01 on EL4 cells).
With `Triton X-100` the IC50 was 1600 nM (HFF; cytotoxicity).
